# Assay results from different studies.
# Each line is one published result; not all experiments were run side by side. ± gives the spread as reported.
# Sample: plasma
# Route: oral
Structure (SMILES),system,conditions,AUC
C=C1[C@H](CO)[C@@H](O)C[C@@H]1n1cnc2c(=O)[nH]c(N)nc21,male Sprague-Dawley rat,"1 mg/kg, added: CdG 1 mg/kg",140 ± 21.7 ng·h/mL
CC(C)=CCC[C@](C)(O[C@@H]1O[C@H](CO)[C@@H](O)[C@H](O)[C@H]1O)[C@H]1CC[C@]2(C)[C@@H]1[C@H](O)C[C@@H]1[C@@]3(C)CC[C@H](O)C(C)(C)[C@@H]3CC[C@]12C,Sprague-Dawley rat,"100 mg/kg of parent ginsenoside, 0 to 48 h, control group, no prebiotic",592 ± 257 ng·h/mL
N#C[C@]1(CO)O[C@@H](n2cnc3c(=O)[nH]c(N)nc32)C[C@@H]1O,male Sprague-Dawley rat,"1 mg/kg, added: entecavir 1 mg/kg",143 ± 47.7 ng·h/mL
COc1cccc(-c2n[nH]c(SCc3ccccn3)n2)c1OC,"Sprague-Dawley rat, both sexes",100 mg/kg,229000 ng·h/mL
CC(C)=CCC[C@](C)(O[C@@H]1O[C@H](CO)[C@@H](O)[C@H](O)[C@H]1O)[C@H]1CC[C@]2(C)[C@@H]1[C@H](O)C[C@@H]1[C@@]3(C)CC[C@H](O[C@@H]4O[C@H](CO)[C@@H](O)[C@H](O)[C@H]4O[C@@H]4O[C@H](CO)[C@@H](O)[C@H](O)[C@H]4O)C(C)(C)[C@@H]3CC[C@]12C,Sprague-Dawley rat,"2000 mg/kg ginseng extract, control diet 2 weeks before dosing",11400 ± 4470 ng·h/mL
Fc1ccc(Nc2n[nH]c3cccnc23)cc1Cl,"Sprague-Dawley rat, male","15 mg/kg, 1 times daily, day 1",1150 µM·h
CC(C)=CCC[C@](C)(O[C@@H]1O[C@H](CO)[C@@H](O)[C@H](O)[C@H]1O)[C@H]1CC[C@]2(C)[C@@H]1[C@H](O)C[C@@H]1[C@@]3(C)CC[C@H](O[C@@H]4O[C@H](CO)[C@@H](O)[C@H](O)[C@H]4O)C(C)(C)[C@@H]3CC[C@]12C,Sprague-Dawley rat,"100 mg/kg of parent ginsenoside, 0 to 48 h, control group, no prebiotic",103 ± 28.5 ng·h/mL
CC#C[C@]1(O)CC[C@H]2[C@@H]3CCC4=CC(=O)CCC4=C3[C@@H](c3ccc(N(C)C)cc3)C[C@@]21C,female Wistar rat,3 x 50 mg/kg,40700 ± 3350 ng·h/mL
CCCSc1nc(N[C@@H]2C[C@H]2c2ccc(F)c(F)c2)c2nnn([C@@H]3C[C@H](OCCO)[C@@H](O)[C@H]3O)c2n1,female Wistar Han rats,"20 mg/kg/day, week 52, carcinogenicity study",31.3 µM·h

# Some of these lines once more:
Structure (SMILES),system,conditions,AUC
CC(C)=CCC[C@](C)(O[C@@H]1O[C@H](CO)[C@@H](O)[C@H](O)[C@H]1O)[C@H]1CC[C@]2(C)[C@@H]1[C@H](O)C[C@@H]1[C@@]3(C)CC[C@H](O[C@@H]4O[C@H](CO)[C@@H](O)[C@H](O)[C@H]4O[C@@H]4O[C@H](CO)[C@@H](O)[C@H](O)[C@H]4O)C(C)(C)[C@@H]3CC[C@]12C,Sprague-Dawley rat,"2000 mg/kg ginseng extract, control diet 2 weeks before dosing",11400 ± 4470 ng·h/mL
